Measured values pooled from the literature.
A part holds a random share of what one study measured.

Series 1
Target: Sal-like protein 4, full length isoform A (SALL4, Homo sapiens, UniProt Q9UJQ4, residues 1-1053)
Chain of UniProt Q9UJQ4 (whole entry, looked up): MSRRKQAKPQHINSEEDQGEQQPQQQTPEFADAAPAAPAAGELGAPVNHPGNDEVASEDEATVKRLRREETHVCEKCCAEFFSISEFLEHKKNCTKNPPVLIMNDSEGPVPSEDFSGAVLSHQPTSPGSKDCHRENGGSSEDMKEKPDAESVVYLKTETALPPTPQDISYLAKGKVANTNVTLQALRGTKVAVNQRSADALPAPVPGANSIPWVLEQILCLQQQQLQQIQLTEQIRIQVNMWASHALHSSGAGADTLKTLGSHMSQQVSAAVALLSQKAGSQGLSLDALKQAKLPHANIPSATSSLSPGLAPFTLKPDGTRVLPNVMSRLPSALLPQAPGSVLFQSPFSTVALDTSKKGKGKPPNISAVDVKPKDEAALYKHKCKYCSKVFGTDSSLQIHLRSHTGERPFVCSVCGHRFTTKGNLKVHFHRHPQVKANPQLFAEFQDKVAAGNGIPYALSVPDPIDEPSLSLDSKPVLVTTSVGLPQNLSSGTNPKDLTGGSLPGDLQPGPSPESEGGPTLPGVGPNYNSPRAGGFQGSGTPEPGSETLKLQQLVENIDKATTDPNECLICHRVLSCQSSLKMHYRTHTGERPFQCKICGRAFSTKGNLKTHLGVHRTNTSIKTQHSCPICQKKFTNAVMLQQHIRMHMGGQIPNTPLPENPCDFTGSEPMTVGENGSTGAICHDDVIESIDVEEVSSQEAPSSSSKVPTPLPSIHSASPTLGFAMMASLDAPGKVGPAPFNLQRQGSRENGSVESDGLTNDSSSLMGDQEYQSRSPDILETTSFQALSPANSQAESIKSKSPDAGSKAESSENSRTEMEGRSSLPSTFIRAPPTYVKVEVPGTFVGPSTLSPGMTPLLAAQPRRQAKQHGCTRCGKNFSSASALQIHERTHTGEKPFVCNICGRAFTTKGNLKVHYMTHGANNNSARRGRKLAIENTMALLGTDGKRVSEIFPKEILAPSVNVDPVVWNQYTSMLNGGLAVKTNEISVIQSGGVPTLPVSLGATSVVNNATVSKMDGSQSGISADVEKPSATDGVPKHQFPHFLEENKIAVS
Technique: universal PBM
Form: double-stranded DNA, one strand shown
Medium: in vitro
Concentration: 600 nM
Setting: 8-mer, flanks averaged, mean of replicates
Direction: higher = stronger binding
| Sequence | E-score |
| --- | --- |
| ATTTTGCG | 0.201 |
| TATCCTGA | 0.175 |
| CTTTCTAA | 0.152 |

Series 2
Target: Ras GTPase-activating protein-binding protein 1, full length (G3BP1, Homo sapiens, UniProt Q13283)
Chain of UniProt Q13283 (whole entry, looked up): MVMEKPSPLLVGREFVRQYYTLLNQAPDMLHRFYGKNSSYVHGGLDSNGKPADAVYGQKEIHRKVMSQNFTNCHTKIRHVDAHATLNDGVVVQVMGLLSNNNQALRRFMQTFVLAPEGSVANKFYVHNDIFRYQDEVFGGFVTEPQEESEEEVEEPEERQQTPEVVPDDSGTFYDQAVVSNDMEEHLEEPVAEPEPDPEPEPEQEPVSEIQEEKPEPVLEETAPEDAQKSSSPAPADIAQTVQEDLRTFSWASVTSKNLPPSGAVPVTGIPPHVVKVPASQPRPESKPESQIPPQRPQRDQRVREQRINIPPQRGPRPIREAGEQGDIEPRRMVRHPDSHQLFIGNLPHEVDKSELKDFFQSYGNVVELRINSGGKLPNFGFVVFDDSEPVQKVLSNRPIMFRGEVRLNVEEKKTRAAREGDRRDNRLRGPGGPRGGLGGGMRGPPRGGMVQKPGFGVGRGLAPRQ
Technique: RNA Bind-n-Seq
Form: RNA
Medium: in vitro
Concentration: 200 nM
Setting: whole 134-nt RNA, ends assumed
With: 150 mM KCl
Baseline: input library
Direction: higher = stronger binding
| Sequence | log2 enrichment |
| --- | --- |
| GGGAGUUCUACAGUCCGACGAUCCUCAAGUCCUGUGCUACACAUCGUAUGUACCGAAUCGGAGGGGAGGGGAGGGGAAAGUAUUAUGUUACGCCGUUCGGAUCUGCACUUCCAUGGAAUUCUCGGGUGUCAAGG | 1.21 |
| GGGAGUUCUACAGUCCGACGAUCAAGUCCUGUGCUACACAUCGUAUGUACCGAAUCGGAAAAGGGAAAAGGGGAAAAGGGAAAGUAUUAUGUUACGCCGUUCGGAUCUGCACUUGGAAUUCUCGGGUGUCAAGG | -0.532 |
| GGGAGUUCUACAGUCCGACGAUCACCAUGCAGGUGGGCAUCUUUGGGAAGUGGGGCAAGGGGGGGAUAGGGAGGGGGGUAACACUUUGGGAAUAGGUGGUCCCAGGUCGUUUCUGGAAUUCUCGGGUGUCAAGG | 1.01 |
| GGGAGUUCUACAGUCCGACGAUCAAGUCCUGUGCUACACAUCGUAUGUACCGAAUCGGGGUGGGGUUUUUGGGGAGGGGAAAGUAUUAUGUUACGCCGUUCGGAUCUGCACUUUGGAAUUCUCGGGUGUCAAGG | 0.499 |

Series 3
Target: Histone acetyltransferase KAT6A, winged helix 2, GST fusion (KAT6A, Homo sapiens, UniProt Q92794, residues 85-181)
Technique: protein binding microarray
Form: double-stranded DNA, one strand shown
Medium: in vitro
Concentration: not given
Setting: 8-mer, flanks averaged, mean of 2 arrays, mostly near background
Baseline: not given
Direction: higher = stronger binding
Construct (chain): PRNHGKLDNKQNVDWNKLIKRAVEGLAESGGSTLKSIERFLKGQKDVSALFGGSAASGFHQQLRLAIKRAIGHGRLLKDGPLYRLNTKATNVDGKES
| Sequence | E-score |
| --- | --- |
| ACGGCGCA | -0.00266 |
| AAGTAAAG | -0.118 |
| CTATGTCC | -0.128 |
| CTGGGCTA | -0.0675 |

Further values, each from its own experiment
| Molecule | target | assay | system | setting | scale | measurement | value |
| --- | --- | --- | --- | --- | --- | --- | --- |
| PhoQ, residues 284 288 289 292 302 303 SSYNSA | PhoP, residues 12 14 15 18 19 NFCKL (Escherichia coli, UniProt P23836) | Sort-seq, measured: YFP reporter | E. coli | PhoQ-PhoP variant library, with: 10 µM Mg2+ | baseline: high Mg2+ state, higher = stronger signaling | fold induction | 1.08 |

For quick reference, copied from above (series 3):
| Sequence | E-score |
| --- | --- |
| AAGTAAAG | -0.118 |
| CTATGTCC | -0.128 |
